Assay results gathered from unrelated publications.
Protocols differ between the studies behind these lines.

| Structure (SMILES) | test | system | setting | measurement | result |
| --- | --- | --- | --- | --- | --- |
| CNC(=O)c1ccc(-c2cnc3ncc(Cc4ccc5ncccc5c4)n3n2)cc1F | refers to: Asthenia | cancer patients | oral, dose not given, dose escalation, grade 3-4 | patients with adverse event | 3% |
| C[C@@H](c1ccc2nccn2c1)n1nnc2ncc(-c3cnn(C)c3)nc21 | refers to: treatment-related grade ≥3 Pneumonitis | EGFR-mutant MET-altered NSCLC | oral, dose not given, all | patients with adverse events | 1% |
| COc1ccc([C@@H](O)c2cc(-c3ncnc4cc(N5CCOCC5)ccc34)c(F)cc2Cl)nn1 |  | locally advanced rectal cancer patients | 250 mg, drug-related adverse events, with: capecitabine and radiotherapy | patients with investigation abnormalities | 50% |
| Cc1cc(NC2CCN(C(=O)OC3CCN(C(=O)/C=C/CN(C)C)C3)CC2)n2ncc(C(C)C)c2n1 (stereo not drawn) | Phase I dose escalation CTCAE v4.0, refers to: peripheral oedema | patients with advanced solid tumours | dose not given, TIW dosing any grade | patients with adverse event | 9% |
| CCO[C@H]1CCN(Cc2c(OC)cc(C)c3[nH]ccc23)[C@H](c2ccc(C(=O)O)cc2)C1 | refers to: Cough | PNH patients, active haemolysis | oral, 100 mg twice daily, extension phase | patients with adverse event | 20% |
| Cc1cc(-c2nnc(N)nc2-c2ccc(F)cc2)cc(Cl)n1 | refers to: obliterative bronchiolitis | IO-naive mCRPC patients, male | oral, dose not given, treatment-related, grade 1 | patients with immune-mediated AE | 0% |
| O=C(Nc1nc2cccc(-c3ccc(CN4CCS(=O)(=O)CC4)cc3)n2n1)C1CC1 |  | rheumatoid arthritis patients | oral, 100 mg twice daily, 4 weeks, TEAE regardless of relatedness | patients with Hypertension | 0% |
| C[C@@H](Nc1cc(F)cc(F)c1)c1cc(C(=O)N(C)C)cc2c(=O)cc(N3CCOCC3)oc12 | refers to: Pruritus | advanced solid tumour patients | oral, dose not given, dose finding | patients discontinuing for AE | 0% |
| COc1cc(Nc2ncc3c(n2)-c2ccc(Cl)cc2C(c2c(F)cccc2OC)=NC3)ccc1C(=O)O | refers to: Pruritus, grade 1 | cancer patients, phase 1/2 | oral, dose not given, with: pembrolizumab | patients with adverse event | 17% |
| CNC(=O)c1cc(Oc2ccc(NC(=O)Nc3cc(C(C)(C)C)nn3-c3ccc4ncccc4c3)c(F)c2)ccn1 |  | patients | oral, dose not given, cycles 1 and 2, High AUC subgroup | patients with grade 3 musculoskeletal disorders | 17% |
| C=CC(=O)NC1CCN(c2ncc3ncnc(Nc4ccc(Oc5ccc6c(c5)ncn6C)c(C)c4)c3n2)CC1 |  | male patients | oral, dose not given, on-treatment adverse events | patients with Hyperhidrosis | 0% |
| CCOc1c([C@H](C)n2nc(C)c3c(N)ncnc32)cc(Cl)c(F)c1[C@@H]1CNC(=O)C1 | refers to: QRS ≤100 ms | previously treated B-cell malignancy | oral, 5 mg once daily, baseline below thresholds | patients | 100% |

A few entries again:
| Structure (SMILES) | test | system | setting | measurement | result |
| --- | --- | --- | --- | --- | --- |
| Cc1cc(NC2CCN(C(=O)OC3CCN(C(=O)/C=C/CN(C)C)C3)CC2)n2ncc(C(C)C)c2n1 (stereo not drawn) | Phase I dose escalation CTCAE v4.0, refers to: peripheral oedema | patients with advanced solid tumours | dose not given, TIW dosing any grade | patients with adverse event | 9% |
